Measured values gathered from unrelated publications.
Parts stem from different laboratories: compare values within a part only. Substitutions count along the parent as printed.

Study 1
Target: CCNA2, cyclin fold, Cln2 fusion (human)
Technique: yeast growth competition, sequencing
Matrix: yeast
Setting: weak parent motif
Baseline: not given
Reading: higher = stronger binding
Starting sequence: SLBP docking peptide (human); ARYKRKLLINDFG
| Substitution | normalised enrichment score |
| --- | --- |
| F12R | 1.38 |
| N10I | 1.53 |
| A1E | 0.259 |
| R5K | 0.954 |
| G13E | 1.14 |
| A1G | 1.24 |
| A1Y | 1.23 |
| I9F | 4.16 |
| R2I | 1.34 |
| F12A | 0.808 |
| Y3N | 0.892 |

Study 2
Target: RNA binding protein fox-1 homolog 2, RRM domain, GST-SBP tag (RBFOX2, Homo sapiens, UniProt O43251-10, residues 100-194)
Technique: RNA Bind-n-Seq
Form: RNA
Matrix: in vitro
Tested at: 365 nM
Setting: natural RNA segment, single round, ends assumed
Baseline: no-protein control
Reading: higher = stronger binding
Shared flanks, not repeated: GGGAGUUCUACAGUCCGACGAUC … UGGAAUUCUCGGGUGCCAA
Residues (chain): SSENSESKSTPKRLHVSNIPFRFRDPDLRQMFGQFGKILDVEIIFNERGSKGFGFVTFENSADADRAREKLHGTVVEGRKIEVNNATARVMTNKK
| Oligonucleotide | RBNS enrichment (R) |
| --- | --- |
| UUUUCGAAAUUGUUUCUAGGACUUUAAAACAUAAUGGUAUAUCCAAAAUUCUUUAUUUCAGAAUGCAACAAUAGAUUCCAUUAAUAUAGACUCAAGAUCAAAACAGCAUA | 0.563 |
| UGUUCUUGCCAUUUGCCAGCCUAAUGCGCAUGCUUUCUGCCUCUGGUAACAGGAGUGAGUGAGCCCCUCAGACCUGCACUCUGGGUGUCUCCUGCUUUCAAAGGUUCUUA | 2.62 |
| CAGGAGGAUAGUUGUUCUGUCUUGGGAGACGGUUUCCAAAAACUCCGAGAGACUUUCUGCUAAUGGUUCAGGAGGCGGAAGAGGAGCUCCUGGCCUCCCAGGUCACGCCA | 0.387 |
| CUCCACCCCACACCUGAGUUCUUGCCUCCUCCUUUUGGGGACACCCAAAACACUGCUUGUGAGAAGGAAGAUGGAAGGUAAGUUCUGUCGUUCUUUCCCCAAUCCCCAGG | 0.387 |
| AGCCUCACCAGGUGGGCUUGUAGCCUCUAUUAUGCAAAUAUUCGUAGCUCAGCUUUCAGAGCGCUAACUCUAAAGGAAUUCACCUGAGCCUUGAGAGAGAACCUGGGCUA | 0.5 |
| UUAAAAGAGGGAGGUGUGGUAUAUUAAAAUGAUUUUACUAAGAGAAAAAAAAUAUUUUUUUAAGGAUGCUCAGAAGAAAUUGAUAAUCUGUGUGAAUAUGUUUUAGAUGU | 2.52 |
| GCUGAAACUGAGCAUCUUGCACAGGGCUCCGAGACUGUACAGGCUACCCCAGAGAGCCUUGAAGUUCCUGAAGUCACAGAGGAUGUAGACCGUGCCACCACAUGCCAGGU | 0.767 |
| GGUAUAGCUUGGGUCCCUUUUCCUGCAAGGCCCCAUGGGGCAGAAUAUAAUAAAUAUUCUGAGUGAGAGUGUGGUCUUUUUCUGAUCUUCCUCAGCUUCCGUAAGUUGCA | 1.22 |
| GCUGUCUAUUAGCCUUGCCUGCCCCACCCAUGAGGUAGGCAGAAAUCCUCACUGCCAGCCCCUCUUAAACAGGUAGAGAGCUGUGAGCCCCAGCCCCACCUGACUCCAGC | 0.187 |
| UACAAGCUCAAGGGCCAGAGCCCAGAGACCCAUUUUCCCCUCCAAGGAGUGGGGCAGGAAGGGUCUCCCAGGCACGCUGUGCUCACCCCCAGGGCCACAUCUCAGCUCUC | 0.285 |
| UGGGAAAGUAUGCACAAAAGAGACUCCCUACAUAGCUCAGAGACUACAGUGCCAAAAUGCCCCAGAGAGGCUCCAUUACUUCUGGAGCCUACAAAGCUGUUCCCUGAUGU | 0.363 |
| UGGUAUUUCUUACAUGAUUUUUUGUUUUCCUCUGUUGCUAGAUAAAUAGAAACUAAUAAUAGCUCUAUUUCUCUGCCAAUAUAAAAUCUACCUUUCAUAUAAUGCUACAU | 0.477 |

Study 3
Target: Sal-like protein 4, full length isoform B (SALL4, Homo sapiens, UniProt Q9UJQ4-2, residues 1-616)
Technique: universal PBM
Form: double-stranded DNA, one strand shown
Matrix: in vitro
Tested at: not given
Setting: 8-mer, flanks averaged, mean of replicates
Reading: higher = stronger binding
Target sequence (chain): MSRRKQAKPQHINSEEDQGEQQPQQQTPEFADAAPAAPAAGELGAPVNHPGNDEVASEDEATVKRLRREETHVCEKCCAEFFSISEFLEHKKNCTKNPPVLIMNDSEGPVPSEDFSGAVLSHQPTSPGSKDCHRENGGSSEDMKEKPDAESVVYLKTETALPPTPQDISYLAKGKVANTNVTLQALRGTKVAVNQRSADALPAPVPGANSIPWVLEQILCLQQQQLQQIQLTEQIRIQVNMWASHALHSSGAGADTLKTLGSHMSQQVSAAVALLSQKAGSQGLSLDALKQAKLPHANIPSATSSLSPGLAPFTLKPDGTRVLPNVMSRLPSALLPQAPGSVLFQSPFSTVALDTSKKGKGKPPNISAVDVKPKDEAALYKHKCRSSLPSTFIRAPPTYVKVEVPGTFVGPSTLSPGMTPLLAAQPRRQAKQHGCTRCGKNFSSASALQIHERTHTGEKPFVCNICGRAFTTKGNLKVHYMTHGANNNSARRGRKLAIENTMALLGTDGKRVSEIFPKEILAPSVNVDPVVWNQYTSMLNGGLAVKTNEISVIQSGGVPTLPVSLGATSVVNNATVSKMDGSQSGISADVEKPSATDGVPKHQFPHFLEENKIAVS
| Oligonucleotide | E-score |
| --- | --- |
| ACGACGTA | 0.123 |
| CAGCGACC | -0.32 |
| ACTGCCAT | 0.0858 |
| CCTGCTAG | -0.214 |
| GAATAGAC | 0.0569 |
| CGAGACCG | -0.312 |
| ACAAAACT | 0.144 |
| AGCGAAGC | -0.246 |
| ACTGGCCC | -0.169 |
| CTCCTATA | 0.229 |
| CCCCTTAG | -0.246 |
| ACATCCCT | -0.0526 |
| GCTCTACA | -0.0743 |
| CAATTCCG | -0.125 |
| ATCAGCAT | 0.167 |
| AGTCCCTA | 0.0309 |
| AATTTGAC | 0.22 |

Further values, each from its own experiment
| Substance | target | assay | system | setting | how to read | endpoint | value |
| --- | --- | --- | --- | --- | --- | --- | --- |
| PhoQ, residues 284 288 289 292 302 303 SMMNNA | PhoP, residues 12 14 15 18 19 GHCSL (Escherichia coli, UniProt P23836) | Sort-seq, refers to: YFP reporter | E. coli | PhoQ-PhoP variant library, together with: 10 µM Mg2+ | baseline: high Mg2+ state, higher = stronger signaling | fold induction | 22.3 |

For quick reference, copied from above (study 1):
| Substitution | normalised enrichment score |
| --- | --- |
| R2I | 1.34 |
| A1G | 1.24 |
| F12A | 0.808 |
| R5K | 0.954 |
